{"data": "Assay results collected from several papers", "note": "Every numbered part comes from another study and shows a few of its results, in no order. Positions count from the first letter of the parent shown."}
{"data": "Block 1", "target": "UBE2W UBC core domain (UniProt Q96B02)", "method": "yeast two-hybrid", "sample": "yeast", "notes": "mostly zero background", "relative to": "not given", "direction": "higher = stronger interaction", "B1": "ZNRF3 RING domain (UniProt Q9ULT6); chain DTLSSSSTSDCAICLEKYIDGEELRVIPCTHRFHRKCVDPWLLQHHTCPHCRHNIIEQKGNP", "Residues (chain)": "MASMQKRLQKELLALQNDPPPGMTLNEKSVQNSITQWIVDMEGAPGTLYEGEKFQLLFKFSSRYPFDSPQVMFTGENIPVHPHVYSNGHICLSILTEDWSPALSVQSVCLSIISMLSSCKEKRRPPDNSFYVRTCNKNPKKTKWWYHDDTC"}
{"Sequence": "KITELNPHLMCVLCGGYFIDATTIIECLHSFCKTCIVRYLETSKYCPICDVQVHKTRPLL (BMI1 RING domain (UniProt P35226))", "lacZ reporter activity": 0}
{"Sequence": "B1 (ZNRF3 RING domain)", "lacZ reporter activity": 0}
{"Sequence": "QLRRLQEERTCKVCLDRAVSIVFVPCGHLVCAECAPGLQLCPICRAPVRSRVRTF (BIRC7 RING domain (UniProt Q96CA5))", "lacZ reporter activity": 0}
{"data": "Block 2", "target": "RING finger protein unkempt homolog, zinc fingers 1-6, GST-SBP tag (UNK, Homo sapiens, UniProt Q9C0B0, residues 30-357)", "method": "RNA Bind-n-Seq", "form": "RNA", "sample": "in vitro", "tested at": "not given", "notes": "RNA with constant flanks, human and mouse sites, ends assumed", "relative to": "input RNA pool", "direction": "higher = stronger binding", "constant ends, left off below": "GGGAGUUCUACAGUCCGACGAUC … CAACAGAGGAUUGAGCAUCA", "sequence of UniProt Q9C0B0 (30-357, looked up)": "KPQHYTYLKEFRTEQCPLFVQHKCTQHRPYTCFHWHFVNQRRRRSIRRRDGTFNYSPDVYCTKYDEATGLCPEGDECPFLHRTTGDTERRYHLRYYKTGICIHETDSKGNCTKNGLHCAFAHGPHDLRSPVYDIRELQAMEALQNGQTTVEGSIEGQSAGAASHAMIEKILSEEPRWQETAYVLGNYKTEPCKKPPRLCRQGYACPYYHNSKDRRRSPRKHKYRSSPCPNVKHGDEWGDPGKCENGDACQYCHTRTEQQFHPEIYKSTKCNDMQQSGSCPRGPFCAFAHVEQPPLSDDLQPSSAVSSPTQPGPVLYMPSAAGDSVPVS"}
{"Oligonucleotide": "CUUCCCCUUAAAUAAUUGUGUUCAUUUUUGUUUUGUUUCCUUGUGUACUCCAGCAUUGGUUAUAGUCAUGGGAAAGGAAGGUGUCCACGCAGGCACAAUUAACAAGAAAACAUAUGAACU", "bound/input enrichment": "0.283 ratio"}
{"Oligonucleotide": "AUGGAGGUGAAGGUGAAGAUCCCUGAAGAAUUAAAACCGUGGCUGGUGGAGGACUGGGACUUGGUUACGAGGCAGAAGCAGUUGUUCCAGCUCCCUGCUAAAAAGAAUGUCGAUGCCAUU", "bound/input enrichment": "0.26 ratio"}
{"Oligonucleotide": "UCAACAUGAACCAGGCUACUGUUUAAGUACAUGUAUAUUAUAAAUUAUCUUGUGUUAUUAUCUUUUCUAAGAGAACAAAGUCCCUAUUAUUCCUAUUGCAAAGCACACAGGAAUUUAAGA", "bound/input enrichment": "0.389 ratio"}
{"Oligonucleotide": "UCUUCCUCUACAGCUACAGCUUCCACACAGACGCAGCAUUCGGGAAUGUCCCCGUCACCUAGCAACAGUUAUGAUACUUCCCCACAGCCUUGCACUACCAAUCAAAAUGGGAGGGAGAAU", "bound/input enrichment": "0.321 ratio"}
{"Oligonucleotide": "GGGGCCGAUGCAGAGACUUUCUCAGAGGGUGAGAUGGUCACAUUUAUAAACUGGGGCAACAUCAACAUUACUAAAAUACACAAAAAUGCAGAUGGAAAAAUUACAUCUCUAGAUGCAAAA", "bound/input enrichment": "0.47 ratio"}
{"Oligonucleotide": "AUAGCGCCCAGAGGAGAUGGGCAUUAUCCAUCGAGUUGUCCAGUGACUCACACUCGAGAGAAAAUUUAUGCGAUCUGCUCAGAUUAUGCCUUCCUCAACCAGGCAACAUCAGUCUACAAA", "bound/input enrichment": "0.179 ratio"}
{"Oligonucleotide": "AAGACAUCACUCAUGAACCAGUAUGUGAAUAAGAAAUUCAGCAAUCAGUACAAAGCCACAAUAGGAGCUGACUUUCUGACCAAGGAGGUGAUGGUGGAUGACAGGCUAGUCACAAUGCAG", "bound/input enrichment": "0.32 ratio"}
{"Oligonucleotide": "GCCCUCAGGAAGUUGAUUAAAACCUGCAGUGCAACAGUUUUAGAUACUGAUUAGUGACUUCAAAGGGAAAUCAAGGAAAGACCAGUUUGCAUUUAUGCGAAAUCUGUGGUUGUAAAUUUU", "bound/input enrichment": "0.398 ratio"}
{"data": "Block 3", "target": "RNA binding protein fox-1 homolog 2, RRM domain, GST-SBP tag (RBFOX2, Homo sapiens, UniProt O43251-10, residues 100-194)", "method": "RNA Bind-n-Seq", "form": "RNA", "sample": "in vitro", "tested at": "365 nM", "notes": "natural RNA segment, single round, ends assumed", "relative to": "no-protein control", "direction": "higher = stronger binding", "constant ends, left off below": "GGGAGUUCUACAGUCCGACGAUC … UGGAAUUCUCGGGUGCCAA", "Residues (chain)": "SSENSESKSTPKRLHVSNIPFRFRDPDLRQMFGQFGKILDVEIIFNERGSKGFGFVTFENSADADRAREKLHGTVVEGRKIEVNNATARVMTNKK"}
{"Oligonucleotide": "ACGCAUCAGCAUGCUCAAGGACUCCUAGAGUCUCUGCUGCCUGCCCACUGCACCACCAGGCAGCCAGGAUUCUAACCCCAUGCAGGCAACCGCCUCCGGAUGGAGCAGAG", "RBNS enrichment (R)": 0.731}
{"Oligonucleotide": "AAAACUGUUUAGGUUAUAGUCUAUUGAUACUUUUUAUAUACAAUUUUAUAAAUAUAAAUAUUAUAAUUUUAUAUUAAUGGUACCAAAAAUACAUUUCUUAAGGUUAAAAG", "RBNS enrichment (R)": 1.93}
{"Oligonucleotide": "GCUUAGAGCAGGGGGAAUGGCAGGGAUUAAGAGCUCAGCUCAGAGCCAGUUACCAAGAUGGAAUGGAGUUGUGACCCAGUAACUGUGUCACGAGAGACCAUGUAUAUAAA", "RBNS enrichment (R)": 0.78}
{"Oligonucleotide": "ACUGGCAGAGCACAGCCCACGGGGAUCACAGCGUUUCAGGAACGUUGCCACACCAAUCAGAGAGCCUAGAACAUCCCUGGGCAAGUGGAUGGCCCAGCAGGCAGGCACUG", "RBNS enrichment (R)": 0.675}
{"Oligonucleotide": "AGCGACCCGGGCGCCAGCCCAGGUCACCGAGCCCUACUGGCGCCGAGUGGGGCGCGUUUGUUCCUCACCCACGCGCGUGGGGAUCCCCUCGCCACAGGGAAGCACAAGAA", "RBNS enrichment (R)": 0.261}
{"Oligonucleotide": "UAAGCUAACACUUUUAACAACGGUUACAAUGUUAAGUGAAGUUCAUGGAUUUAACAACAAAACAGAUGAAAUGUCAUUGUUUUUUUUUUCCAAGUCACUAAAGAGUUACU", "RBNS enrichment (R)": 0.79}
{"Oligonucleotide": "CCAUGGCAUAUGACAAAGACCAAUGAGGGACCAGGAAAAAAAGUGAUGUCCCCUUUCCCUGCCACCUCCAGCCUCUGCCAGCAAUGAGCUGUCCCCCUCCCACCCUACAC", "RBNS enrichment (R)": 1.23}
{"Oligonucleotide": "AGCCUGUGGCAGUAAAGAGAAACUUUGUGCUACAUGACGACAAAGCUGCUAAAUCUCCUAUUUUUUUAAAAUCACUAACAUUAUAUUGCAAUGAAGGAAAUAAAAAAGUC", "RBNS enrichment (R)": 0.903}
{"data": "Block 4", "target": "CCNB2, cyclin fold, Cln2 fusion (human)", "method": "yeast growth competition, sequencing", "sample": "yeast", "notes": "strong parent motif", "relative to": "not given", "direction": "higher = stronger binding", "starting sequence": "viral docking peptide; TSVRRALFTGGSD"}
{"Substitution": "G10L", "normalised enrichment score": 0.534}
{"Substitution": "V3T", "normalised enrichment score": 0.483}
{"Substitution": "G10E", "normalised enrichment score": 1.91}
